Results pooled from the literature.
Every numbered part comes from another study and shows a few of its results, in no order. Positions count from the first letter of the parent shown.

Study 1
Target: Interferon regulatory factor 3, full length, phosphomimetic (IRF3, Homo sapiens, UniProt Q14653, residues 1-427, S386D/S396D/S398D/S402D/T404D/S405D)
Method: protein-binding microarray
Form: double-stranded DNA, one strand shown
Sample: in vitro
Concentration: 2540 nM top
Notes: 60-bp whole probe
Added: salmon DNA 0.4 mg/ml
Baseline: random background probes
Reading: higher = stronger binding
Quantity: fitted relative affinity
Constant ends, left off below: GCCTAGCAC … GTCTTGATTCGCTTGACGCTGCTG
Construct (chain): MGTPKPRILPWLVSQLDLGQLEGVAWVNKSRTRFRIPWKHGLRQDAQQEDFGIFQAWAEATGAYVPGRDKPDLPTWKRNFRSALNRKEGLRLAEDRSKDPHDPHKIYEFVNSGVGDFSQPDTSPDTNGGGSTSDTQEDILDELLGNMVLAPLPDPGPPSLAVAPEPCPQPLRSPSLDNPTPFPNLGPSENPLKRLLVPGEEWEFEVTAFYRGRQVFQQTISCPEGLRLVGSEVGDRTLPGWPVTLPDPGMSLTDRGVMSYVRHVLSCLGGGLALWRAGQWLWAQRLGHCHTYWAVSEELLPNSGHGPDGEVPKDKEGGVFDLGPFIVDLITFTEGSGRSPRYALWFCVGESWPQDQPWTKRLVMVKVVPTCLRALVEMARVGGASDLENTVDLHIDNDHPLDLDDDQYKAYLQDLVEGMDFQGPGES
GACGAACTGGGATATCGAGACGTGCTA: -0.264 z-score
TTTTGCTTTCTTTTTGCACTGTGCTAG: 4.63 z-score
TGCTTCCTCTTTCTCTGCTAGTGCTAG: 2.39 z-score
AAACAAATAAGCCTTACTTGGTGCTAG: 0.285 z-score
GACGAACTGGGGTTTCGAGAGGTGCTA: -0.0243 z-score
GGGCAGGAAACGGAGGACACGTGCTAG: -0.493 z-score
GAAGGACTGGGTATCGGGACGTGCTAG: -0.283 z-score
TTAGGTCTCTTTCTCCTTTAGTGCTAG: 2.34 z-score
GACGCACTGGACACTGGGGACGTGCTA: -0.634 z-score
GAAGGACTGCTTCTCCTGACGTGCTAG: -0.295 z-score
ATCGATTTCTTCCCTGTGAAAGTGCTA: 0.732 z-score
TTAGAAGTGGGGTATCGATTAGTGCTA: -0.193 z-score
CTAGGTATCGGTTTCGGTTAGTGCTAG: 8.81 z-score
TCATGTCTGCCTTTCAAACTGTGCTAG: 0.396 z-score
TAAGGTTTCCTTCTCCTTTAGTGCTAG: 9.99 z-score
TCACCCATGAGTCTCAAACTGTGCTAG: -0.299 z-score
ATAGGACTGGACTTTCGGTTAGTGCTA: 1.25 z-score
TTAGATATCAGTCTAGATTAGTGCTAG: 0.478 z-score
TTAAGTATCGGTATCGGTTAGTGCTAG: 5.65 z-score

Study 2
Target: RING finger protein unkempt homolog, zinc fingers 1-6, SBP tag (UNK, Homo sapiens, UniProt Q9C0B0, residues 30-357)
UniProt Q9C0B0, sequence (30-357, looked up): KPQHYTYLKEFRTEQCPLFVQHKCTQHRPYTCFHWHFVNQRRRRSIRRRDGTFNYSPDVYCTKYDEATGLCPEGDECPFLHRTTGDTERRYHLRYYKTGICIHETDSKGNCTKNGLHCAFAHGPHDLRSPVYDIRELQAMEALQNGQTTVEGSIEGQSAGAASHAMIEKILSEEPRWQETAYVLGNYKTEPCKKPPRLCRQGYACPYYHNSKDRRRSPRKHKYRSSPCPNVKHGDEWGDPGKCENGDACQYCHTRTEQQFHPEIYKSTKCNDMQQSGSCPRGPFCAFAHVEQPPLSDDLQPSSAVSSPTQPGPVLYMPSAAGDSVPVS
Method: RNA Bind-n-Seq
Form: RNA
Sample: in vitro
Concentration: 100 nM
Notes: RNA with constant flanks, vertebrate orthologous sites, ends assumed
Baseline: input RNA pool
Reading: higher = stronger binding
Quantity: bound/input enrichment
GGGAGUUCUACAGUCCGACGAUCAGGAAAUGCUGGCUGCAAACCCUCAGGAUCGUCCAGAUGCUUUUGAACUAGAACUCCGAUUAGUACAAAUUGCAUUUAAAGAUAGCAGCUGGGAAACGUGACACAUACUAUUUACAAAUACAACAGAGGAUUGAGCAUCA: 2.73 ratio
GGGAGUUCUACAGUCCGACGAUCCUACUAUAAACAACUCAGGGCAGUAUUCUCGUUACCCUUACAGUAACCUAAAUCAGGGAUUAGUAAAUAAUACAGGGAUGAAUCAGAAUUUAGGCCUUACAAAUAACACUCCAAUGAAUCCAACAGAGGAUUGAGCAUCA: 1.14 ratio
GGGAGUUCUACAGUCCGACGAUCAAAGCCAUUUUUCACAUUUCCUGUAAAUAGUGGUUAAUCAUUUUUUUAAAUUUCAUUUUUAAGUGCUGUUUUAACAAUGUGGAUAGACCAUAAAUGUACUUGCUGAAUUCAUUCAUUUUUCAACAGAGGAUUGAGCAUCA: 0.367 ratio
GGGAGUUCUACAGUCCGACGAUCAGAGUUGGAAGAAUAGCAUAGGAAUUUGUCAGAAAAGUUAGAGGAGCAUUUGGGGAGGGAAGUUAACAAAUAUCAAGAGCCCAAUGGAUAAGAAGUAGAGAUGAAGGUCAUUGAAACUCACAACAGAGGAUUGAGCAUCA: 0.695 ratio
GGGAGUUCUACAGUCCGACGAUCCAUGUCCUGGUUACUGUGAUACUCAUAAUAGCCACAGUUCUCACUUGUUCCAAACAGUCCUGAUGAUUGCCCAGAAAUAUCCUUCUCUUACCUGUUAUUUAUCAAUUUUUCCCAGUAUUUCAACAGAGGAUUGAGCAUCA: 1.59 ratio
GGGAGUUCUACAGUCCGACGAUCAGAACCUAAAAAUAUAGCAAAAGAGCCAAGCAGUGGCUUUUUUUUAUAAAUGUAAAAAUUAGAUCCAGCCUUUUGUUUCCGUAUUCAGUUUUAAAAAUAAAAAAUACCUCAGUGCUAUGACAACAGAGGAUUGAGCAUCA: 1.09 ratio
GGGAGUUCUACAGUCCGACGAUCAGACUUUCUGUGUGCCAGAUUACCCCAAAAAACAUAAAGCUACUUUUUUACUUGCAUAUUUUUCAAAGUACCUGAAAAUGGUUUUUCUCCUUUCUAAUGGUCAAAAGAAGGUACAUUUCCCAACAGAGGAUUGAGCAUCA: 0.501 ratio
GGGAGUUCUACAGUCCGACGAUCUAAUCACUCUAAUUGUAAUCUGAAUAAAGUGUAACAUUGUGUAGCCUUUUUUGUAUAAAAUAGACAAAUAGAAAUGGUCCAAUUAGUUUCCUUUUUAAUAUGCUUAAAAUAAGCAGGUGGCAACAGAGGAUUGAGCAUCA: 1.67 ratio

Study 3
Target: Histone acetyltransferase KAT6A, winged helix 2, GST fusion (KAT6A, Homo sapiens, UniProt Q92794, residues 85-181)
Method: protein binding microarray
Form: double-stranded DNA, one strand shown
Sample: in vitro
Concentration: not given
Notes: 8-mer, flanks averaged, mean of 2 arrays, mostly near background
Baseline: not given
Reading: higher = stronger binding
Quantity: E-score
Construct (chain): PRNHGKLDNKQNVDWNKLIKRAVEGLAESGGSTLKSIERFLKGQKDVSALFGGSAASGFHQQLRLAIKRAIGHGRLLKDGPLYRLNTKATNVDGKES
AAGTGTTG: 0.0174
GTGTCTAA: 0.0408
AGTCCGCC: 0.0838
AGTGTTAA: 0.0105
GATCCGGA: 0.154
CTTAAAAA: 0.139
ACCTATAC: -0.177
TATCTAAA: -0.104
ATAGACTG: -0.113
CCCACCAG: -0.0274
ACCGATAC: 0.0401
ACCATTCT: -0.197
TAAGGCTA: -0.237
GCAATTCA: 0.0555
CCGCGCAG: 0.225
GCCCATGA: 0.108
TGATTCCA: -0.205
GGTTCAAA: 0.017
CCGTAGCA: -8.5e-05
AAGGAGCG: -0.0851
GGGAAAGA: 0.109
CAGGGCAC: 0.143
ATCTGGCA: 0.154
TACAAAAA: 0.0946

Study 4
Target: CCNB1, cyclin fold, Cln2 fusion (human)
Method: yeast growth competition, sequencing
Sample: yeast
Notes: weak parent motif
Baseline: not given
Reading: higher = stronger binding
Quantity: normalised enrichment score
Starting sequence: SCAPER docking peptide (human); SNARRSLNFGGST
SNARASLNFGGST [R5A]: 0.109
DNARRSLNFGGST [S1D]: 0.801
INARRSLNFGGST [S1I]: 0.1
YNARRSLNFGGST [S1Y]: 1.42
SNAARSLNFGGST [R4A]: 0.278
SNARRSLDFGGST [N8D]: 0.679
SNARRSLNFGQST [G11Q]: 0.201
SNARRSLPFGGST [N8P]: 0.477
MNARRSLNFGGST [S1M]: -0.114
SNARRSSNFGGST [L7S]: 1
VNARRSLNFGGST [S1V]: 0.735
SNACRSLNFGGST [R4C]: 0.301
SNWRRSLNFGGST [A3W]: 0.38
SNARRSLNFIGST [G10I]: 0.491
SNARRSLNTGGST [F9T]: 0.66
SNARRSLNFGGGT [S12G]: 0.783
SNARHSLNFGGST [R5H]: 0.584
SNFRRSLNFGGST [A3F]: 0.721
SNERRSLNFGGST [A3E]: 0.244
SNARRSLNFGGDT [S12D]: 0.777
SNARRSKNFGGST [L7K]: 0.931
SNARPSLNFGGST [R5P]: -0.0877
SNARRSLNFGCST [G11C]: 0.317
SNARRSLNFMGST [G10M]: 0.528
STARRSLNFGGST [N2T]: 0.45

Some of these lines once more (study 1):
GACGCACTGGACACTGGGGACGTGCTA: -0.634 z-score
GAAGGACTGCTTCTCCTGACGTGCTAG: -0.295 z-score
ATCGATTTCTTCCCTGTGAAAGTGCTA: 0.732 z-score
TTAGAAGTGGGGTATCGATTAGTGCTA: -0.193 z-score
CTAGGTATCGGTTTCGGTTAGTGCTAG: 8.81 z-score
TCATGTCTGCCTTTCAAACTGTGCTAG: 0.396 z-score
TAAGGTTTCCTTCTCCTTTAGTGCTAG: 9.99 z-score
TCACCCATGAGTCTCAAACTGTGCTAG: -0.299 z-score
